Measurements pooled from the literature.
Parts stem from different laboratories: compare values within a part only. Positions count from the first letter of the parent shown.

Study 1
Target: Fragile X messenger ribonucleoprotein 1, C-terminal low-complexity region (Fmr1, Mus musculus, UniProt P35922)
Technique: RNA Bind-n-Seq
Form: RNA
Matrix: in vitro
Tested at: 200 nM
Notes: whole 134-nt RNA, ends assumed
Together with: 150 mM KCl
Baseline: input library
Direction: higher = stronger binding
Endpoint: log2 enrichment
Sequence = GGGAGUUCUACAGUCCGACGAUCUCAAGUCCUGUGCUACACAUCGUAUGUACCGAAUCGGUUGGGGUUGGGGUUGGGGAAAGUAUUAUGUUACGCCGUUCGGAUCUGCACUUCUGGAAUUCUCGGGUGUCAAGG; result = 0.801
Sequence = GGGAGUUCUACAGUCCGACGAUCCUCAAGUCCUGUGCUACACAUCGUAUGUACCGAAUCGGUUUGGUUUUUGGAGGAAAGUAUUAUGUUACGCCGUUCGGAUCUGCACUUCCAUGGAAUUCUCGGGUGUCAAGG; result = -0.0067
Sequence = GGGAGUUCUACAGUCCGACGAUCUUGCUUCAAGAAGAUCCCUAAGCUGUAGAACAUUUUAACGUUGAUGCCACAACGCAGAUUGAUGCCUUGUAGAUGGAGCUUGCAGAUGGAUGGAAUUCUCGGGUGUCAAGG; result = -0.235
Sequence = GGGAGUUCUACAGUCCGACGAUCCACAGACAACACGCACCCACACAGACACAGAGGGAAUGGGUUGGGAUGGGGACAGGGUGCACAGCAGGGCGGGGUAGGACCCCAGCCCCUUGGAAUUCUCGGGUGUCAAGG; result = 1.45
Sequence = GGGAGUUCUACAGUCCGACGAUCUCAAGUCCUGUGCUACACAUCGUAUGUACCGAAUCGGUGGUUUGGAAAAAAAGGAAAGUAUUAUGUUACGCCGUUCGGAUCUGCACUUCCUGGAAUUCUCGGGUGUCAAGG; result = -0.447
Sequence = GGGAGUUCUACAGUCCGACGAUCACCAUGCAGGUGGGCAUCUUUGGGAAGUGGGGCAAGGGGGGGAUAGGGAGGGGGGUAACACUUUGGGAACAGGUGGUCCCAGGUCGUUUAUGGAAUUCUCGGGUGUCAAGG; result = 0.872
Sequence = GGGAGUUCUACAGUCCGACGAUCUGGGAGGUGGAUUUUGUUUAUUUUUUUAGCUCAUUUCCAGGGGUGGGAAUUUUUUUUUUAUAUGUGUCAUGAAUAAAGUUGUUUUUGAAAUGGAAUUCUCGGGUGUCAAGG; result = 0.365
Sequence = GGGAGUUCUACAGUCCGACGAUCCAAGUCCUGUGCUACACAUCGUAUGUACCGAAUCGGAAAGGUUUUUGGAAAAAGGAAAGUAUUAUGUUACGCCGUUCGGAUCUGCACUUCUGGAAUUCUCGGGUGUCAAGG; result = -0.892
Sequence = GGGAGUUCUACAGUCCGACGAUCACCAUGCAGGUGGGCAUCUUUGGGAAGUGGGGCAAGGGGGGGAUAGGGAGGGGGGUAACACUUUGGGAACAGGUGGUCCCAGGUCGUUUCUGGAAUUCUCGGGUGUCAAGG; result = 0.664
Sequence = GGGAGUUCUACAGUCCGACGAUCCCUCAAGUCCUGUGCUACACAUCGUAUGUACCGAAUCGGGUGGGUGGUGGGGAAAGUAUUAUGUUACGCCGUUCGGAUCUGCACUUCCAGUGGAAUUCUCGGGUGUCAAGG; result = 1.2
Sequence = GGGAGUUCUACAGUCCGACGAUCCCUGUGCUACACAUCGUAUGUACCGAAUCGGCCCCCCCGGCCCCCCCGGGCCCCCCCGGGGAAAGUAUUAUGUUACGCCGUUCGGAUCUGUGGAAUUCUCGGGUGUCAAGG; result = -0.519
Sequence = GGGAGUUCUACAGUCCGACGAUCCAAGUCCUGUGCUACACAUCGUAUGUACCGAAUCGGCCCGGGCCCGGGGCCCGGGAAAGUAUUAUGUUACGCCGUUCGGAUCUGCACUUCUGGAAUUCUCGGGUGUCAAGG; result = -0.68
Sequence = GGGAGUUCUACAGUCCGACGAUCUUUUAUGUGGAGUUAUGAAGACCUACAGGCAGAGAGAGAAACAGGGGAGCAAGGUGCAAGAGUCCACAAAGGGACCUGAUGAAGCGAAGAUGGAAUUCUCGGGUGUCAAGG; result = -0.0187
Sequence = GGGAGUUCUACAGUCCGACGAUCCACAGACAACACGCACCCACACAGACACAGAGGGCAGGGGUUGGGAUGGGGACAGGGUGCACAGCAGGGCGGGGUAGGACCCCAGCCCCUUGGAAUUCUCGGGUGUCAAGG; result = 1.31

Study 2
Target: CCND2, cyclin fold, Cln2 fusion (human)
Technique: yeast growth competition, sequencing
Matrix: yeast
Notes: strong parent motif
Baseline: not given
Direction: higher = stronger binding
Endpoint: normalised enrichment score
Parent: PKN2 docking peptide (human); VSAVRKLDFSDTM; partner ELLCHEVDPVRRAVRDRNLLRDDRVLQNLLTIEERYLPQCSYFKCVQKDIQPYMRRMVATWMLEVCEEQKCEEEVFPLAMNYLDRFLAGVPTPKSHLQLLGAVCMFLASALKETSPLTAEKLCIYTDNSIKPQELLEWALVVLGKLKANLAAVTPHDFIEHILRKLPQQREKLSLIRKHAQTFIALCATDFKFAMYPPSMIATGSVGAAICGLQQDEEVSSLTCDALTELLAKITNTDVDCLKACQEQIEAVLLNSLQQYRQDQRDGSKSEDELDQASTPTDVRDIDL
Variant = VSAVRKLDFSDCM [T12C]; result = 3.42
Variant = VSGVRKLDFSDTM [A3G]; result = 0.533
Variant = VSAVRKLEFSDTM [D8E]; result = 2.1
Variant = VSFVRKLDFSDTM [A3F]; result = 0.191
Variant = VCAVRKLDFSDTM [S2C]; result = 2.66
Variant = VSAVRKLLFSDTM [D8L]; result = 0.378
Variant = VSAVCKLDFSDTM [R5C]; result = 1.5
Variant = VSAVRKLDFSDRM [T12R]; result = 3.41
Variant = VSAVYKLDFSDTM [R5Y]; result = 1.07
Variant = VSAVRKLGFSDTM [D8G]; result = 0.363
Variant = VSAVRKHDFSDTM [L7H]; result = 0.42
Variant = VSAVRGLDFSDTM [K6G]; result = 0.407
Variant = VSAVVKLDFSDTM [R5V]; result = 0.75
Variant = VSAVGKLDFSDTM [R5G]; result = -0.105
Variant = VSAVRKVDFSDTM [L7V]; result = 0.16
Variant = VSAVRKLRFSDTM [D8R]; result = 0.671
Variant = VMAVRKLDFSDTM [S2M]; result = 1.75
Variant = VSAVRCLDFSDTM [K6C]; result = 3.22
Variant = VHAVRKLDFSDTM [S2H]; result = 2.53
Variant = VSAVRKYDFSDTM [L7Y]; result = 0.357
Variant = VSHVRKLDFSDTM [A3H]; result = 0.585
Variant = VSAVRKEDFSDTM [L7E]; result = 0.0937
Variant = VSAVRKLDSSDTM [F9S]; result = 0.229
Variant = VSAVRKLDFMDTM [S10M]; result = 2.47

Study 3
Target: MAFF, bZIP domain (human)
Technique: DHFR protein complementation
Matrix: yeast
Notes: single substitutions, most at no-binding floor
Baseline: wild-type JUN-FOS pair
Direction: higher = stronger binding
Endpoint: binding fitness
Parent: JUN, bZIP domain (human); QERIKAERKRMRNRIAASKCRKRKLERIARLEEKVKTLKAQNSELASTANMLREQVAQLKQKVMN; partner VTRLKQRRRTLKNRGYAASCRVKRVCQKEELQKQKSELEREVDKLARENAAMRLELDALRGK
Variant = E33F; result = -1.33 natural log
Variant = A46H; result = -1.51 natural log
Variant = Q41R; result = -1.54 natural log
Variant = K39P; result = -1.52 natural log
Variant = L59S; result = -1.36 natural log
Variant = M51W; result = -1.35 natural log
Variant = E54H; result = -1.41 natural log
Variant = S47H; result = -1.43 natural log
Variant = T37D; result = -1.32 natural log
Variant = L45Q; result = -1.45 natural log
Variant = S43E; result = -1.18 natural log
Variant = Q41K; result = -1.3 natural log
Variant = A40K; result = -1.37 natural log
Variant = S43Q; result = -1.15 natural log
Variant = K36P; result = -1.52 natural log
Variant = I28E; result = -1.52 natural log
Variant = T37F; result = -1.63 natural log
Variant = A29S; result = -1.41 natural log
Variant = T48C; result = -1.37 natural log
Variant = V56N; result = -1.5 natural log
Variant = E44S; result = -1.48 natural log
Variant = R30G; result = -1.39 natural log
Variant = M51N; result = -1.51 natural log
Variant = V35G; result = -1.46 natural log
Variant = M51E; result = -1.44 natural log

Study 4
Target: UBE2V1 UBC core domain (UniProt Q13404)
Sequence of UniProt Q13404 (whole entry, looked up): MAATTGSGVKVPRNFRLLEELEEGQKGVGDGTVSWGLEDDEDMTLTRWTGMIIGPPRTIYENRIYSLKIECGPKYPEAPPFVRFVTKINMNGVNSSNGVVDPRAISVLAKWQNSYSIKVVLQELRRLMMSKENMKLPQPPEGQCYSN
Technique: yeast two-hybrid
Matrix: yeast
Notes: mostly zero background
Baseline: not given
Direction: higher = stronger interaction
Endpoint: lacZ reporter activity
B1: RNF32 RING domain (UniProt Q9H0A6); chain VQALRRETHECSICLAPLSAAGGQRVGAGRRSREMALLSCSHVFHHACLLALEEFSVGDRPPFHACPLCRSCYQKKILEC
B2: RNF130 RING domain (UniProt Q86XS8); chain DKETDPDFDHCAVCIESYKQNDVVRILPCKHVFHKSCVDPWLSEHCTCPMCKLNILKALGIV
B3: NHLRC1 RING domain (UniProt Q6VVB1); chain MREAEISLLECKVCFEKFGHRQQRRPRNLSCGHVVCLACVAALAHPRTLALECPFCRRACRGCDTSD
B4: UBE4B RING domain (UniProt O95155); chain KNARAEIDYSDAPDEFRDPLMDTLMTDPVRLPSGTIMDRSIILRHLLNSPTDPFNRQTLTESMLEPVPELKEQIQAWMREKQNSDH
B5: TRIM2 RING domain (UniProt Q9C040); chain VRQIDKQFLICSICLERYKNPKVLPCLHTFCERCLQNYIPAHSLTLSCPVCRQTSILPEKGV
B6: MDM2 RING domain (UniProt Q00987); chain TQDKEESVESSLPLNAIEPCVICQGRPKNGCIVHGKTGHLMACFTCAKKLKKRNKPCPVCRQPIQMIVLTYFP
B7: RNF115 RING domain (UniProt Q9Y4L5); chain TQEQVDMGLECPVCKEDYTVEEEVRQLPCNHFFHSSCIVPWLELHDTCPVCRKSLNGEDSTR
B8: TRIM32 RING domain (UniProt Q13049); chain NLDALREVLECPICMESFTEEQLRPKLLHCGHTICRQCLEKLLASSINGVRCPFCSKITRITSLTQ
B9: SHPRH RING domain (UniProt Q149N8); chain KTSGGVNPEPCPICARQLGKQWAVLTCGHCFCNECISIIIEQYSVGSHRSSIKCAICRQTTSHKEISY
B10: RNF17 RING domain (UniProt Q9BXT8); chain SQPWGAAEIQCTRCGRRVSRSSGHHCELQCGHAFCELCLLMTEECTTIICPDCEVATAVNTRQR
B11: TRIM47 RING domain (UniProt Q96LD4); chain MDGSGPFSCPICLEPLREPVTLPCGHNFCLACLGALWPHRGASGAGGPGGAARCPLCQEPFPDGLQLR
B12: TRIM74 RING domain (UniProt Q86UV6); chain SLLELEDWLQCPICLEVFKESLMLQCGHSYCKGCLVSLSYHLDTKVRCPMCWQVVDGSSSLP
B13: CBLL1 RING domain (UniProt Q75N03); chain GEKDDTPVHFCDKCGLPIKIYGRMIPCKHVFCYDCAILHEKKGDKMCPGCSDPVQRIEQCT
Sequence = B1 (RNF32 RING domain); result = 0
Sequence = B2 (RNF130 RING domain); result = 0
Sequence = B3 (NHLRC1 RING domain); result = 0
Sequence = PLRRLQEEKLCKICMDRHIAVVFIPCGHLVTCKQCAEAVDRCPMCSAVIDFKQRVF (BIRC8 RING domain (UniProt Q96P09)); result = 0
Sequence = B4 (UBE4B RING domain); result = 0
Sequence = B5 (TRIM2 RING domain); result = 0
Sequence = FLSKVEETFQCICCQELVFRPITTVCQHNVCKDCLDRSFRAQVFSCPACRYDLGRSYAMQ (UHRF1 RING domain (UniProt Q96T88)); result = 0
Sequence = B6 (MDM2 RING domain); result = 0
Sequence = GSEEEEIPFRCFICRQAFQNPVVTKCRHYFCESCALEHFRATPRCYICDQPTGGIFNPA (RNF113B RING domain (UniProt Q8IZP6)); result = 0
Sequence = B7 (RNF115 RING domain); result = 0
Sequence = B8 (TRIM32 RING domain); result = 0
Sequence = EIKDYKARLTCPCCNMRKKDAVLTKCFHVFCFECVKTRYDTRQRKCPKCNAAFGANDFHR (RNF20 RING domain (UniProt Q5VTR2)); result = 0
Sequence = B9 (SHPRH RING domain); result = 0
Sequence = KITELNPHLMCALCGGYFIDATTIVECLHSFCKTCIVRYLETNKYCPMCDVQVHKTRPLL (PCGF2 RING domain (UniProt P35227)); result = 0
Sequence = AAQLLEEKLTCAICLGLYQDPVTLPCGHNFCGACIRDWWDRCGKACPECREPFPDGAELR (TRIM65 RING domain (UniProt Q6PJ69)); result = 0
Sequence = B10 (RNF17 RING domain); result = 0
Sequence = B11 (TRIM47 RING domain); result = 0
Sequence = B12 (TRIM74 RING domain); result = 0
Sequence = B13 (CBLL1 RING domain); result = 0

Some of these lines once more (study 4):
Sequence = B4 (UBE4B RING domain); result = 0
Sequence = B1 (RNF32 RING domain); result = 0
Sequence = B2 (RNF130 RING domain); result = 0
Sequence = EIKDYKARLTCPCCNMRKKDAVLTKCFHVFCFECVKTRYDTRQRKCPKCNAAFGANDFHR (RNF20 RING domain (UniProt Q5VTR2)); result = 0
Sequence = B5 (TRIM2 RING domain); result = 0
Sequence = KITELNPHLMCALCGGYFIDATTIVECLHSFCKTCIVRYLETNKYCPMCDVQVHKTRPLL (PCGF2 RING domain (UniProt P35227)); result = 0
Sequence = B11 (TRIM47 RING domain); result = 0
Sequence = B8 (TRIM32 RING domain); result = 0
